Published values gathered from unrelated publications.
Lines come from different studies, so protocols differ.
Observed: metabolic stability
Species: human

Cn1ccc([C@H](CO)Nc2nc(N3C[C@@H]4C[C@H]3CO4)c3cc(-c4ccccc4)oc3n2)n1  hepatocyte CLint (hepatocytes): 5 µL/min/10⁶ cells
O=C(CN1CN(c2ccccc2)C2(CCN(C(=O)c3cnc4[nH]ncc4c3)CC2)C1=O)NCC(F)(F)F  microsomal CLint (liver microsomes): 32 µL/min/mg
c1ccc([C@H]2CCC[C@@]3(C2)OOC2(O3)C3CC4CC(C3)CC2C4)c(OCCN2CCOCC2)c1 (mixture of isomers)  microsomal CLint (liver microsomes): 282 µL/min/mg
COc1cc2c(cc1NC(=O)c1cncn1C)C[C@H]1[C@H]3CCCC[C@@]23CCN1C  microsomal CLint (liver microsomes): 20.8 µL/min/mg
[2H]c1nc([2H])c(-c2nc([2H])n3c2C([2H])([2H])N=C(c2ccccn2)c2cc(C#C)ccc2-3)o1  microsomal CLint (liver microsomes): 0.056 µL/min/mg
Cn1c(C(C)(C)C)c/c(=N\C(=O)c2cc(C(F)(F)F)ccc2OCC(C)(C)O)n1CC1CCC1  microsomal CLint (liver microsomes): ≤ 10 µL/min/mg
Cc1cc(-c2ccc3ccccc3c2)nnc1NCCN1CCN(C)CC1  microsomal CLint (liver microsomes): < 23.1 µL/min/mg
CCc1nnc(-c2c(OC)cc(-c3cnc4cc(-c5cnn(C)c5)ccn34)cc2OC)o1  microsomal CLint (liver microsomes): < 9.6 µL/min/mg
CCCCCn1ccc(C(=O)NC(C)(C)c2ccc(CNC(C)=O)cc2)n1  microsomal CLint (liver microsomes): 14 µL/min/mg
NC1CCN(C(=O)Oc2cccc([C@H]3CCC[C@@]4(C3)OOC3(O4)C4CC5CC(C4)CC3C5)c2)CC1 (some centres unmarked)  microsomal CLint (liver microsomes): < 11 µL/min/mg
O=C(CN1C(=O)C2(CCN(C(=O)c3ccc4[nH]ncc4n3)CC2)c2c(Br)cccc21)NCC(F)(F)F  microsomal CLint (liver microsomes): 10 µL/min/mg
c1cc(OCCN2CCOCC2)cc([C@H]2CCC[C@@]3(C2)OOC2(O3)C3CC4CC(C3)CC2C4)c1 (mixture of isomers)  microsomal CLint (liver microsomes): 57.2 µL/min/mg
C[C@]12CC[C@H]3[C@@H](CCC4=CC(=O)CC[C@@]43C)[C@@H]1CC[C@@H]2O  scaled CLint (hepatocytes; 1 µM): 176 mL/min/kg
CN(C)CCCNC(=O)C[C@H](Cc1ccc(F)cc1)NC(=O)[C@@H](Cc1ccc(Cl)cc1Cl)NC(=O)[C@H](N)Cc1ccccc1C#N  microsomal CLint (liver microsomes; 1 µM): 91 µL/min/mg
